Assay results collected from several papers.
Target: Calcium/calmodulin-dependent protein kinase type 1G (CAMK1G, Homo sapiens, UniProt Q96NX5)

SMILES | test | conditions | how to read | quantity | result
C=CC(=O)N1CCCC(n2c(=O)c3ncccc3n(Cc3ccc(Oc4ccccc4)cc3)c2=O)C1 (stereo not drawn) | cell-free assay, competition with immobilised ligand | 1 µM | – | remaining binding | 100%
COc1cc(Nc2nccc(-c3cnn4nc(OC)ccc34)n2)cc(C(F)(F)F)c1 | binding, competition with immobilised ligand | 1 µM | – | remaining binding | 92%
CNC(=O)C[C@H](Cc1ccc(C#N)cc1)NC(=O)c1cc(-c2ccc(CN[C@H](C)c3ccc(C)cc3)o2)ccc1Cl | enzyme activity, inhibitor | 1 µM | – | activity vs control | 119%
NC(=O)[C@@H](O)C[C@H]1CCc2sc3ncnc(O[C@H]4CC[C@H](N5CCOCC5)CC4)c3c21 | enzyme activity, inhibitor | 10 µM | – | inhibition | 5%
COc1c(Cl)cccc1Nc1c(-c2ccncc2C#C[C@@]2(C)CCCN2C(=O)/C=C/CN(C)C)[nH]c2c1C(=O)NCC2 | cell-free assay, competition with immobilised ligand | 3 µM | – | remaining binding | 93%
Nc1ncc(-c2cc(-c3cnn(CC(F)(F)F)c3)ncc2F)nc1C(=O)NC1CNCC(F)C1 (stereo not drawn) | enzyme activity | 1 µM | relative to: DMSO control | remaining activity | 106%
C=CC(=O)N1Cc2nc(-c3cc(-c4cc(Cl)cnc4Cl)c(F)cc3F)n(-c3ccncn3)c2C1 | cell-free assay | 1 µM | – | inhibition | -2.9%
CCn1cc(C(=O)O)c(=O)c2c(N)c(F)c(NC3CCCCC3)cc21 | kinase activity | 0.1 µM, with: ATP at Km | – | inhibition | 4.1%
CNC(=O)C1CCN(c2cc(C)c(F)cc2NC(=O)c2ccc(-c3cc(O)ccc3C)c(C)c2)CC1 | binding, competition with immobilised ligand | 1 µM | – | remaining binding | 90%
Cc1ccc(-c2c(/C=C(\C#N)C(=O)NC(C)C)n(CCCO)c3ncnc(N)c23)cc1 | cell-free assay, competition with immobilised ligand | 1 µM | – | remaining binding | 97%
COc1cc(Nc2nc(C)cc(-c3cnn4nc(OC)ccc34)n2)cc(C(F)(F)F)c1 | inhibitor | 1 µM | relative to: control | remaining activity | 95%
CNC1C[S+]2CC[S+]3CC[S+](C1)[Ru-4]321([N]=C=S)[n]2c3ccc(OC)cc3c3c4c(c5cc(F)c[n+]1c5c32)C(=O)NC4=O (stereo not drawn) | KinomeScan | 0.1 µM | relative to: untreated | remaining binding | 96%
CN1CCN(Cc2ccc(-c3ccc(CO[C@H]4CCC[C@@H]4NC(=O)c4cc(-c5cnn(C)c5)cnc4N)cc3)cc2)CC1 | enzyme activity, inhibitor | 0.1 µM | – | inhibition | 5%
O=C(Cc1ccc(OCc2ccccc2)cc1)NC1(C(=O)O)CCN(C(=O)c2ccc(-c3cccc(Cl)c3)cc2)CC1 | enzyme activity, inhibitor | 10 µM | – | activity vs control | 108%
CC(C)=CC1OC(C)(C)C2C=C3C(=O)C(Cl)=CC(O)C3C3C(O)C4OC4C(=O)C132 (stereo not drawn) | cell-free assay, competition with immobilised ligand | 10 µM | – | remaining binding | 93%
Cc1cnc2nc1Nc1cccc(c1)COC/C=C/COCc1cc(ccc1OCCN1CCOCC1)N2 | binding, competition with immobilised ligand | 0.1 µM | – | remaining binding | 100%
CCN1CCN(Cc2ccc(C(=O)Nc3ccc(C)c(NCc4cnc5[nH]ccc5c4OC)c3)cc2C(F)(F)F)CC1 | binding, competition with immobilised ligand | 1 µM | – | remaining binding | 87%
Nc1ncc2c(n1)-c1c([nH]c3ccc(C4=CCOCC4)cc13)CCC2 | binding, competition with immobilised ligand | 1 µM | – | remaining binding | 100%
NC(=O)C[C@H]1CCc2sc3ncnc(O[C@H]4CC[C@H](N5CCOCC5)CC4)c3c21 | enzyme activity, inhibitor | 10 µM | – | inhibition | 5%
CN1CC[C@@H](COc2cnc(C#N)cc2-c2ccn3nc(NC(=O)C4CC4)cc3c2)C1 | enzyme activity, inhibitor | 1 µM | – | inhibition | 1%
C=CC(=O)N1CCc2ccc(-n3c(=O)ccc4cnc5ccc(-c6cnn(C)c6)cc5c43)cc21 | KINOMEscan | 1 µM | relative to: DMSO control | remaining binding | 92%

For quick reference, copied from above:
SMILES | test | conditions | how to read | quantity | result
Nc1ncc2c(n1)-c1c([nH]c3ccc(C4=CCOCC4)cc13)CCC2 | binding, competition with immobilised ligand | 1 µM | – | remaining binding | 100%
CNC(=O)C1CCN(c2cc(C)c(F)cc2NC(=O)c2ccc(-c3cc(O)ccc3C)c(C)c2)CC1 | binding, competition with immobilised ligand | 1 µM | – | remaining binding | 90%
CN1CCN(Cc2ccc(-c3ccc(CO[C@H]4CCC[C@@H]4NC(=O)c4cc(-c5cnn(C)c5)cnc4N)cc3)cc2)CC1 | enzyme activity, inhibitor | 0.1 µM | – | inhibition | 5%
